Experimental data gathered from unrelated publications.
Protocols differ between the studies behind these lines. Numbers after ± are the reported error. ≈ marks a conversion by molar mass, not a printed value.
Organism: Mycobacterium tuberculosis

The IC50 of `CCCCCCC#Cc1cncc(-c2nnc(SCc3cc([N+](=O)[O-])cc([N+](=O)[O-])c3)n2C2CC2)c1` is reported as 1.2 µM (bacterial growth; Erdman wild type).
`O=c1c2cc(Cl)ccc2[nH]c(=S)n1Cc1cc[nH]n1` gave an MIC90 of 29.2 µM (PptT conditional knockdown).
For `NC(=O)c1cc(Br)ccc1OCCc1cccc(F)c1`, the IC90 was 5.5 ± 1.7 µM (growth; H37Rv-LP; 120 h).
With `CC[C@@H](CO)NCCN[C@@H](CC)CO` the kill rate was 0.46 h⁻¹ (time-kill; H37Rv; concentration not given, 7 days).
The IC50 of `CCCCCCC#Cc1cncc(-c2nnc(SCc3ccc([N+](=O)[O-])o3)n2C)c1` is reported as 0.1 ± 0.0115 µM (bacterial growth, MABA; Erdman wild type).
With `Cc1noc(C)c1-c1ccc(OCCc2cccc(F)c2)c(C(N)=O)c1` the selectivity index was greater than 9 (H37Rv-LP; reference: HepG2 CC50 over Mtb IC90).
For `CC(N)(CO)C(=O)Nc1ccc(C(=O)Nc2ccnc(=O)[nH]2)cc1` (centres unmarked), antimycobacterial activity read “inactive” (H37Ra; 100 µM).
The MIC90 of `O=c1c2cc(Cl)ccc2[nH]c(=S)n1Cc1cncnc1` is reported as 0.32 µM (PptT conditional knockdown).
The selectivity index of `CNC(=O)c1cc(-c2ccoc2)ccc1OCCc1cccc(F)c1` is reported as 28 (H37Rv-LP; reference: HepG2 CC50 over Mtb IC90).
For `Cc1c(-c2ccc(N3CCCCC3)cc2)[nH]c2ccccc2c1=O`, the IC90 was 3.11 ± 0.56 µM (bacterial growth, microplate alamarBlue; H37Rv; aerobic).
For `COc1ccc(-c2cc(C(F)(F)F)c3c(N)c(C(=O)Nc4cccc(C)c4C)sc3n2)cc1OC`, the IC50 was greater than 100 µM (growth inhibition; H37Rv LepB under-expressing).
With `COCc1ccc2[nH]c(=S)n(Cc3cccnc3)c(=O)c2c1` the MIC90 was 7.27 µM (PptT conditional knockdown).
`CC(=O)c1cc(-c2ccoc2)ccc1OCCc1cccc(F)c1` has a selectivity index of 181 (H37Rv-LP; reference: HepG2 CC50 over Mtb IC90).
`O=C(CNc1ccc(Cl)cc1)NC1C2CC3CC(C2)CC1C3` (centres unmarked): activity “inactive” (H37Rv mc2 6206; concentration not given, 168 h).
With `CCNC(=O)c1cc(C)ccc1OCCc1cc(F)cc(F)c1` the selectivity index was 33 (H37Rv-LP; reference: HepG2 CC50 over Mtb IC90).
With `CO[C@H]1[C@H](O[C@H]([C@H]2O[C@@H](n3ccc(=O)[nH]c3=O)[C@H](O)[C@@H]2O)[C@H](NCCCNC(=O)[C@@H](NC(=O)[C@@H](NC(=O)N[C@H](C(=O)O)C(C)C)[C@@H]2CCN=C(N)N2)[C@@H](O)C(C)C)C(=O)O)O[C@H](CN)[C@H]1O` the MIC90 was 1.6 ± 0.041 µg/mL (microplate alamar blue; H37Rv).
`Cc1nc2ccc(CN(C)c3ccc(C(=O)N[C@@H](CCC(=O)O)C(=O)O)s3)cc2c(=O)[nH]1` has an MIC90 of greater than 100 µM (bacterial growth, inhibitor; H37Rv wild type).
With `N#CN=c1[nH]c2ccc(Cl)cc2c(=O)n1Cc1cccnc1` the MIC90 was 24 µM (PptT conditional knockdown).
For `NNC(=O)c1ccncc1`, activity read “inactive” (H37Rv; 10 µg/mL).
`Cc1cccc(CNC(=O)c2sc3nc(-c4ccc5c(c4)OCO5)cc(C(F)(F)F)c3c2N)c1C` gave an IC50 of 1.1 ± 1 µM (growth inhibition; H37Rv LepB under-expressing).
`Cc1ccc(NCC(=O)N[C@H]2CC[C@H](C)CC2)cc1`: activity “inactive” (H37Rv mc2 6206; concentration not given, 168 h).
With `CN(C)C(=O)c1sc2nc(-c3ccccc3)ccc2c1N` the IC50 was 13 ± 9 µM (growth inhibition; H37Rv LepB under-expressing).
The selectivity index of `Cc1ccc(OCCc2cccc(F)c2)c(C(N)=O)c1` is reported as 53 (H37Rv-LP; reference: HepG2 CC50 over Mtb IC90).
The selectivity index of `COc1ccc(-c2cc(C(F)(F)F)c3c(N)c(C(=O)N4CC(OC)C4)sc3n2)cc1` is reported as less than 1 (H37Rv wild type; reference: HepG2 IC50 over M. tuberculosis IC90).
With `CN1CCN(c2ccc(Nc3nccc(-c4ccc([N+](=O)[O-])cc4)n3)cc2C(F)(F)F)CC1` the MIC was 13.8 µg/mL (H37Rv auxotrophic strain).
`COc1ccc(-c2ccc3c(N)c(C(=O)N4CCOCC4)sc3n2)cc1` has an IC50 of greater than 100 µM (growth inhibition; H37Rv LepB under-expressing).
For `COC(=O)C(=O)[C@H](C[C@@H]1CCNC1=O)NC(=O)[C@H](CCCCN)NC(=O)[C@H](Cc1ccccc1)NC(=O)OCc1ccccc1`, the IC50 was 9.6 ± 2.7 µM (bacterial growth; THP-1 macrophages, Mtb-lux; 72 h).
`O=c1c2cc(Cl)c(CO)cc2[nH]c(=S)n1Cc1cncc(-c2nnn[nH]2)c1` gave an MIC90 of 11.9 µM (PptT conditional knockdown).
`COc1ccc(-c2cc(C(F)(F)F)c3c(N)c(C(=O)NC4COC4)sc3n2)cc1` gave an IC50 of greater than 100 µM (growth inhibition; H37Rv LepB under-expressing).
`CN1CCN(c2ccc(Nc3nccc(-c4ccncc4)n3)cc2C(F)(F)F)CC1` gave an MIC of greater than 100 µM (H37Rv auxotroph).
The IC50 of `CCCCCCC#Cc1cncc(-c2nnc(SCc3cc([N+](=O)[O-])cc([N+](=O)[O-])c3)n2C)c1` is reported as 0.34 µM (bacterial growth; Erdman wild type).
The MIC of `COc1cccc(-c2ccnc(Nc3ccc(N4CCN(C)CC4)c(C(F)(F)F)c3)n2)c1` is reported as 25 µM (H37Rv auxotroph).
The MIC99 of `COc1ccc(NNC(=O)c2c(N)cccc2F)cc1` is reported as 1.56 to 2.84 µM (≈ 0.429 to 0.782 µg/mL) (H37Rv; 336 h).
`NNC(=O)c1ccncc1` has an MIC50 of less than 0.005 µM (W4; 120 h).
`Nc1cccc(F)c1C(=O)NNc1cccc(Cl)c1` has an MIC99 of 1.56 to 2.84 µM (≈ 0.436 to 0.794 µg/mL) (H37Rv; 336 h).
`CO[C@H]1/C=C/O[C@@]2(C)Oc3c(C)c(O)c4c(O)c(c(/C=N/N5CCN(C)CC5)c(O)c4c3C2=O)NC(=O)/C(C)=C\C=C\[C@H](C)[C@H](O)[C@@H](C)[C@@H](O)[C@@H](C)[C@H](OC(C)=O)[C@@H]1C` gave an MIC50 of less than 0.005 µM (W4; 120 h).
The MIC90 of `CC(C)C(=O)OCc1cc2[nH]c(=S)n(Cc3cncnc3)c(=O)c2cc1Cl` is reported as 0.353 µM (PptT conditional knockdown).
For `Cc1cccc(NC(=O)c2sc3nc(-c4ccc5c(c4)OCO5)cc(C(F)(F)F)c3c2N)c1C`, the IC50 was 0.48 ± 0.06 µM (growth inhibition; H37Rv LepB under-expressing).
For `C#Cc1ccc(OCCc2cccc(F)c2)c(C(N)=O)c1`, the selectivity index was 3 (H37Rv-LP; reference: HepG2 CC50 over Mtb IC90).
`O=c1c2cc(Cl)ccc2[nH]c(=S)n1C(CCc1ccccc1)c1cccnc1` (centres unmarked) has an MIC90 of greater than 100 µM (PptT conditional knockdown).
With `CCCCCCC#Cc1cncc(-c2nnc(SCc3ccc(Cl)cc3)n2C2CC2)c1` the IC50 was 3.3 µM (bacterial growth; Erdman wild type).
The selectivity index of `COc1ccc(-c2cc(C(F)(F)F)c3c(N)c(C(=O)NC45CC(C4)C5)sc3n2)cc1` is reported as less than 1 (H37Rv wild type; reference: HepG2 IC50 over M. tuberculosis IC90).
The MIC of `CN1CCN(c2ccc(Nc3nccc(-c4cccnc4)n3)cc2C(F)(F)F)CC1` is reported as greater than 51 µg/mL (H37Rv auxotrophic strain).
The MIC99 of `Nc1cccc(F)c1C(=O)NNc1ccc(C(F)(F)F)cc1` is reported as 1.56 to 2.84 µM (≈ 0.489 to 0.89 µg/mL) (H37Rv; 336 h).
With `CNC(=O)c1sc(C)nc1OCCc1cc(F)cc(F)c1` the selectivity index was 4 (H37Rv-LP; reference: HepG2 CC50 over Mtb IC90).
`NC(=S)c1ccc(Cn2c(=S)[nH]c3ccc(Cl)cc3c2=O)cn1` gave an MIC90 of 0.83 µM (PptT conditional knockdown).
The MIC of `CN1CCN(c2ccc(Nc3nccc(-c4ccnc(Cl)c4)n3)cc2C(F)(F)F)CC1` is reported as 50 µM (H37Rv auxotroph).

For quick reference, copied from above:
The IC50 of `CCCCCCC#Cc1cncc(-c2nnc(SCc3ccc([N+](=O)[O-])o3)n2C)c1` is reported as 0.1 ± 0.0115 µM (bacterial growth, MABA; Erdman wild type).
For `NC(=O)c1cc(Br)ccc1OCCc1cccc(F)c1`, the IC90 was 5.5 ± 1.7 µM (growth; H37Rv-LP; 120 h).
`O=C(CNc1ccc(Cl)cc1)NC1C2CC3CC(C2)CC1C3` (centres unmarked): activity “inactive” (H37Rv mc2 6206; concentration not given, 168 h).
`NC(=S)c1ccc(Cn2c(=S)[nH]c3ccc(Cl)cc3c2=O)cn1` gave an MIC90 of 0.83 µM (PptT conditional knockdown).
`Nc1cccc(F)c1C(=O)NNc1cccc(Cl)c1` has an MIC99 of 1.56 to 2.84 µM (≈ 0.436 to 0.794 µg/mL) (H37Rv; 336 h).
The MIC90 of `O=c1c2cc(Cl)ccc2[nH]c(=S)n1Cc1cncnc1` is reported as 0.32 µM (PptT conditional knockdown).
`COc1ccc(-c2ccc3c(N)c(C(=O)N4CCOCC4)sc3n2)cc1` has an IC50 of greater than 100 µM (growth inhibition; H37Rv LepB under-expressing).
With `CN(C)C(=O)c1sc2nc(-c3ccccc3)ccc2c1N` the IC50 was 13 ± 9 µM (growth inhibition; H37Rv LepB under-expressing).
